Results of several laboratories.
Compare with care: the assays were run in different laboratories. Numbers after ± are the reported error.

Structure (SMILES)	target or system	test	test system	setting	how to read	endpoint	value
CNC(=O)c1c(N(C)N=O)ncn1C	Salmonella typhimurium	plate incorporation	TA98, water	50 µg/plate, without S9		revertant colonies per plate	27.7 ± 7
O=C(Nc1cc(F)c(F)c(F)c1)c1ccc(F)c(S(=O)(=O)N2CCC(O)CC2)c1	hepatitis B virus		HepAD38		reference: CC50 over EC50	selectivity index	31.2
[Cl-].[Cl-].[Pt+2].[Ru+2].c1ccc(-c2nc3cc4ccccc4cc3nc2-c2ccccn2)nc1.c1cnc2c(c1)ccc1cccnc12.c1cnc2c(c1)ccc1cccnc12	Danio rerio		embryos	45 µM, 72 h		survival rate	80 ± 4%
Cc1noc2c(NC3CCOCC3)cc(-c3cccc(C(F)(F)F)c3)nc12	Vero-E6	CellTiter-Glo ATP		concentration not given, 72 h, first round 5-point	reference: DMSO 0%, hyamine -100%, more negative, more toxic	cytotoxicity efficacy	-21.7%
CCOC(=O)C1=C(CN2CCN(Cc3cccc(B4OC(C)(C)C(C)(C)O4)c3)CC2)NC(c2nccs2)=NC1c1ccc(F)cc1Br (stereo not shown)	hepatitis B virus		HepDES19		reference: CC50 over EC50	selectivity index	18
CC(=O)N1CCC(C(=O)N2CCN3C(=O)c4cc(-c5ccccc5)ccc4NC(=O)C3C2)CC1 (stereo not shown)	Escherichia coli		WP2 uvrA	15.8 µg/plate, with rat liver S9	reference: vehicle	revertant fold increase	0.9
CCOC(=O)C1=C(CN2CCC[C@H]2C(=O)Nc2ccc(B(O)O)cc2)NC(c2nccs2)=N[C@@H]1c1ccc(F)cc1Br	hepatitis B virus		HepDES19		reference: CC50 over EC50	selectivity index	1
O=C(NCc1cccs1)C1CCCN(Cc2cccc(-c3ccc(F)cc3F)c2)C1 (stereo not shown)	Vero-E6	CellTiter-Glo ATP		72 h, first round 5-point	reference: DMSO 0%, hyamine -100%, more negative, more toxic	maximum response	-10.4%
[Cl-].[Cl-].[Pt+2].[Ru+2].c1ccc(-c2nccnc2-c2ccccn2)nc1.c1cnc2c(c1)ccc1cccnc12.c1cnc2c(c1)ccc1cccnc12	Danio rerio		embryos	60 µM, 72 h		survival rate	56.7 ± 3.7%
CCOC(=O)C1=C(CN2CCCC2C(=O)Nc2cccc(B3OC(C)(C)C(C)(C)O3)c2)NC(c2nccs2)=NC1c1ccc(F)cc1Br (stereo not shown)	hepatitis B virus		HepDES19		reference: CC50 over EC50	selectivity index	80
Cc1cc(C(=O)NC(C)(C)COc2cccc3c2C(N)=NS(=O)(=O)N3)cc(C)n1	Escherichia coli	Ames test, confirmatory	WP2 uvrA	3333 µg/plate, added: rat liver S9	reference: solvent control	revertant ratio	1
[Cl-].[Cl-].[Pt+2].[Ru+2].c1ccc(-c2nc3ccccc3nc2-c2ccccn2)nc1.c1cnc2c(c1)ccc1cccnc12.c1cnc2c(c1)ccc1cccnc12	Danio rerio		embryos	45 µM, 96 h		hatching rate	36.7 ± 2.1%
CCOC(=O)C1=C(CN2CCCC2C(=O)Nc2cccc(B(O)O)c2)NC(c2nccs2)=NC1c1ccc(F)cc1Br (stereo not shown)	hepatitis B virus		HepDES19		reference: CC50 over EC50	selectivity index	79
OC(CCN1CC=C(c2ccc(F)cc2)CC1)c1ccc(F)c2ccccc12 (stereo not shown)	Salmonella typhimurium	SOS/umu test	TA1535/pSK1002	0.25 mg/mL, 4 h, with S9, lower range		survival	151%
N#C[C@@]1(n2ccc(N)nc2=O)O[C@H](CO)[C@@H](O)[C@H]1O	Salmonella typhimurium		TA98	100 µM, without S9		viability	85%
CCOC(=O)C1=C(CN2CCN(Cc3cccc(B(O)O)c3)CC2)NC(c2nccs2)=NC1c1ccc(F)cc1Br (stereo not shown)	hepatitis B virus		HepDES19		reference: CC50 over EC50	selectivity index	24
Fc1ccc(C2=CCNCC2)cc1	Salmonella typhimurium	SOS/umu test	TA1535/pSK1002	0.004 mg/mL, 4 h, without S9, full range		survival	95.8%
CCOP(=S)(OCC)SCSCC	Oncorhynchus kisutch	oxon formation, substrate	liver microsomes	30 min, pH 7.6, freshwater-acclimated, added: NADPH		Km	122 ± 11.8 µM
O=[N+]([O-])c1ccc(N2CCC(NCCC(O)c3ccc(F)c4ccccc34)CC2)c(C(F)(F)F)c1 (stereo not shown)	Salmonella typhimurium	SOS response, SOS/umu test	TA1535/pSK1002, TGA medium	0.000122 mg/mL, 4 h, without S9	reference: untreated	induction factor	0.6
CCOC(=O)C1=C(CN2CCC(C(=O)Nc3ccc(B4OC(C)(C)C(C)(C)O4)cc3)C2)NC(c2nccs2)=NC1c1ccc(F)cc1Br (stereo not shown)	hepatitis B virus		HepDES19		reference: CC50 over EC50	selectivity index	34
O=[N+]([O-])c1ccc(N2CCN(CCC(O)c3ccc(F)cc3)CC2)c(C(F)(F)F)c1 (stereo not shown)	Salmonella typhimurium	genotoxicity, SOS/umu test	TA1535/pSK1002	0.002 mg/mL, 4 h, without S9, lower range		induction factor	0.8
COc1cccc(-c2n[nH]c(SCc3ccccn3)n2)c1OC	Escherichia coli	Ames test, preincubation	WP2 uvrA	2.0 mg/plate, without S9		revertant colonies per plate	11

Some of these lines once more:
Structure (SMILES)	target or system	test	test system	setting	how to read	endpoint	value
O=C(Nc1cc(F)c(F)c(F)c1)c1ccc(F)c(S(=O)(=O)N2CCC(O)CC2)c1	hepatitis B virus		HepAD38		reference: CC50 over EC50	selectivity index	31.2
